{"data": "Literature values, collected from citations in different studies", "note": "Numbered parts are unrelated; values within a part may stem from several laboratories. Numbers after ± are the reported error.", "sequence of UniProt P04789 (whole entry, looked up)": "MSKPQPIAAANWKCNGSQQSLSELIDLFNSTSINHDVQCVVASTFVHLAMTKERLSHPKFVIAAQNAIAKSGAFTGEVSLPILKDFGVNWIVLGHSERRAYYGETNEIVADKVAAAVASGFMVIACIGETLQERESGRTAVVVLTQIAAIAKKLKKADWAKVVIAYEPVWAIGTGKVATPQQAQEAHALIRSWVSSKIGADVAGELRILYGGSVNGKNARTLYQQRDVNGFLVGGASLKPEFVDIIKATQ"}
{"data": "Set 1", "target": "HLA class I histocompatibility antigen, C alpha chain, allele C*04:01 (Homo sapiens, UniProt P10321)", "read-out": "peptide-MHC binding", "molecule type": "peptide"}
{"Sequence": "SEFWLNYTA", "IC50 [µM]": "> 5"}
{"Sequence": "HASHYTIPW", "IC50 [µM]": "> 5"}
{"Sequence": "RQHPGLFPF", "IC50 [µM]": "> 5"}
{"Sequence": "RPPYSSYGY", "IC50 [µM]": "> 20"}
{"Sequence": "IVDCLTEMYY", "IC50 [µM]": "> 20"}
{"Sequence": "FPHTELANL", "IC50 [µM]": "> 20"}
{"Sequence": "SLMASSPTSI", "IC50 [µM]": "> 20"}
{"Sequence": "KVFPYALINK", "IC50 [µM]": "> 5"}
{"Sequence": "MTDVDLNYY", "IC50 [µM]": 20}
{"Sequence": "YVILVGAAF", "IC50 [µM]": 20}
{"Sequence": "MTMSYLSTR", "IC50 [µM]": "> 5"}
{"Sequence": "TEAEKWPFF", "IC50 [µM]": 1.5}
{"Sequence": "RVYAHVRSV", "IC50 [µM]": "> 5"}
{"Sequence": "FPYTGDPPY", "IC50 [µM]": "> 5"}
{"Sequence": "KSLTTTMQFK", "IC50 [µM]": "> 20"}
{"Sequence": "YMMDDLEL", "IC50 [µM]": "> 20"}
{"Sequence": "RRRPVTRPL", "IC50 [µM]": "> 5"}
{"Sequence": "SYSTPALTL", "IC50 [µM]": 20}
{"Sequence": "MAWERGPAL", "IC50 [µM]": "> 5"}
{"Sequence": "SYLTVHQMI", "IC50 [µM]": 20}
{"Sequence": "YARNFLIPF", "IC50 [µM]": "> 5"}
{"Sequence": "KELGVHMSL", "IC50 [µM]": "> 5"}
{"Sequence": "LPSCPTNFCIF", "IC50 [µM]": "> 20"}
{"Sequence": "RYRQVLSPL", "IC50 [µM]": "> 5"}
{"Sequence": "YSLEYFQF", "IC50 [µM]": "> 20"}
{"data": "Other studies, line by line"}
{"Compound": "O=C[C@H](O)COP(=O)(O)O", "tested on": "Triosephosphate isomerase, glycosomal (Trypanosoma brucei brucei, UniProt P04789)", "assay": "substrate", "setting": "pH 9.3", "quantity": "Km", "value": "340 µM"}
{"Compound": "C=CCN1CC[C@]23c4c5ccc(O)c4OC2C(NC(=O)c2cccc(I)c2)CC[C@@]3(O)[C@H]1C5 (stereo partly drawn)", "system": "CD1 mice", "setting": "subcutaneous", "quantity": "ED50", "value": "0.6 mg/kg"}
{"Compound": "CC(C)N(CCC(C(N)=O)(c1ccccc1)c1ccccn1)C(C)C (stereo not drawn)", "system": "rat, plasma", "quantity": "fraction unbound", "value": 0.61}
{"Compound": "CNC(C)C(=O)c1cccc(Cl)c1 (stereo not drawn)", "tested on": "serotonin transporter", "assay": "serotonin release, releaser", "quantity": "EC50", "value": "0.41 µM"}
{"Compound": "CC1(C)CCC(c2ccc(Cl)cc2)=C(CN2CCN(c3ccc(C(=O)NS(=O)(=O)c4ccc(N[C@H](CCN5CCOCC5)CSc5ccccc5)c(S(=O)(=O)C(F)(F)F)c4)cc3)CC2)C1", "system": "human", "setting": "once daily", "quantity": "maximum tolerated dose", "value": "325 mg"}
{"Compound": "CC(C)N(CCc1c[nH]c2cccc(O)c12)C(C)C", "system": "human", "setting": "concentration not given, anecdotal reports", "quantity": "duration of hallucinogenic effect", "value": "2 to 3 h"}
{"Compound": "O=C(NC1CC[C@@]2(O)[C@H]3Cc4ccc(O)c5c4[C@@]2(CCN3CC2CC2)C1O5)c1cccc(I)c1 (stereo partly drawn)", "system": "CD1 mice", "setting": "subcutaneous", "quantity": "ED50", "value": "0.39 mg/kg"}
{"Compound": "C[C@H](c1ccccc1)n1cncc1C(=O)OCCC(=O)O", "system": "rat", "setting": "MOC-etomidate infusion, 60 min after 30 min infusion", "quantity": "blood concentration", "value": "820 ± 42 µM"}
{"Compound": "COc1ccc(NC(=O)N2CCCCN3[C@H](CN(C)C)[C@H](c4ccc(C#Cc5ccccc5)cc4)[C@@H]3C2)cc1", "tested on": "Plasmodium falciparum cytosolic PheRS", "quantity": "IC50", "value": "0.023 µM"}
{"Compound": "OCc1ncc2n1-c1ccc(Cl)cc1C(c1ccccc1F)=NC2", "setting": "single-compartment model", "quantity": "rate constant out of compartment", "value": "0 L/h"}
{"Compound": "Clc1ccc(C2c3ccccc3C3=NCCN32)cc1 (racemic)", "tested on": "serotonin transporter", "quantity": "Ki", "value": "0.013 µM"}
{"Compound": "Cc1ccc(C(=O)Nc2ccc(Oc3cc4cnn(C)c4cc3-c3cn[nH]c3)c(F)c2)c(=O)n1-c1ccc(F)cc1", "system": "human", "setting": "concentration not given", "quantity": "time to treatment failure", "value": "1.4 months"}
{"Compound": "CN1CC[C@@H](c2c(O)cc(O)c3c(=O)cc(-c4ccc(C(F)(F)F)cc4Cl)oc23)[C@@H]1CO", "system": "patients with solid tumours", "setting": "continuous daily dosing", "quantity": "maximum tolerated dose", "value": "350 mg"}
{"Compound": "C1=Cc2cccc3cccc1c23", "assay": "substrate", "system": "human liver microsomes", "quantity": "Vmax", "value": "0.241 nmol/min/mg"}
{"Compound": "O=S(=O)(O)C(F)(F)C(F)(F)C(F)(F)C(F)(F)C(F)(F)C(F)(F)F", "system": "human, young female", "quantity": "renal clearance", "value": "0.033 mL/day/kg"}
{"Compound": "NS(=O)(=O)OC[C@@H]1C[C@@H](n2ccc3c(N[C@H]4CCc5ccccc54)ncnc32)C[C@@H]1O", "system": "human adult patients", "setting": "single agent", "quantity": "MTD", "value": "60 mg/m²"}
{"Compound": "O=C(Nc1ccc(O[C@H]2CCNC2)c(-c2ccc(F)cc2)c1)c1ccc(O[C@H]2CCNC2)c(-c2ccc(F)c(F)c2)c1", "tested on": "human β-catenin/BCL9 interaction", "assay": "inhibitor, AlphaScreen", "quantity": "Ki", "value": "2.1 ± 0.41 µM"}
{"Compound": "CNC(=O)c1cccc(-c2ccc3c(N4CCOC[C@@H]4C)nc(N4CCOC[C@@H]4C)nc3n2)c1", "system": "human", "setting": "twice daily", "quantity": "maximum tolerated dose", "value": "50 mg"}
{"Compound": "O=C(Nc1ccc(OCCO)c(-c2ccc(F)cc2)c1)c1ccc(OCCO)c(-c2ccc(F)c(F)c2)c1", "tested on": "human β-catenin/BCL9 interaction", "assay": "inhibitor, AlphaScreen", "quantity": "Ki", "value": "37 ± 2.7 µM"}
{"Compound": "COC(=O)C[C@@H]1N=C(c2ccc(Cl)cc2)c2c(sc(C)c2C)-n2c(C)nnc21", "tested on": "Bromodomain-containing protein 4, BD2 (BRD4, Homo sapiens, UniProt O60885)", "assay": "biochemical", "setting": "bromodomain 2", "quantity": "IC50", "value": "0.046 µM"}
{"Compound": "O=C(O)C(F)(F)C(F)(F)C(F)(F)C(F)(F)C(F)(F)C(F)(F)C(F)(F)C(F)(F)C(F)(F)C(F)(F)F", "system": "human", "setting": "mean", "quantity": "renal clearance", "value": "0.005 mL/day/kg"}
{"Compound": "c1cc2ccc3cccc4ccc(c1)c2c34", "assay": "substrate", "system": "human liver microsomes", "quantity": "Vmax", "value": "0.088 nmol/min/mg"}
{"Compound": "Cc1nc(Nc2ncc(C(=O)Nc3c(C)cccc3Cl)s2)cc(N2CCN(CCO)CC2)n1", "system": "solid tumour patients", "quantity": "MTD", "value": "180 mg"}
{"Compound": "COCCNCc1ccc(-c2cc3nccc(Oc4ccc(NC(=S)NC(=O)Cc5ccc(F)cc5)cc4F)c3s2)nc1", "system": "human", "setting": "concentration not given", "quantity": "time to treatment failure", "value": "1 month"}
{"Compound": "CC1(C)[C@@H]2CC[C@@]1(C)[C@@H](N1C(=O)c3c(F)c(F)c(F)c(F)c3C1=O)C2", "tested on": "RAW264.7", "assay": "TNF-α and nitrite reduction", "setting": "together with: LPS", "quantity": "lowest effective concentration", "value": "100 nM"}
{"Compound": "COc1ccc2c(c1)[nH]c1c(C)nccc12", "tested on": "CDK2/cyclin A", "assay": "kinase activity, inhibitor", "quantity": "IC50", "value": "> 30 µM"}
{"note": "For quick reference, copied from above (other studies, line by line):"}
{"Compound": "C=CCN1CC[C@]23c4c5ccc(O)c4OC2C(NC(=O)c2cccc(I)c2)CC[C@@]3(O)[C@H]1C5 (stereo partly drawn)", "system": "CD1 mice", "setting": "subcutaneous", "quantity": "ED50", "value": "0.6 mg/kg"}
{"Compound": "CC(C)N(CCC(C(N)=O)(c1ccccc1)c1ccccn1)C(C)C (stereo not drawn)", "system": "rat, plasma", "quantity": "fraction unbound", "value": 0.61}
{"Compound": "CNC(C)C(=O)c1cccc(Cl)c1 (stereo not drawn)", "tested on": "serotonin transporter", "assay": "serotonin release, releaser", "quantity": "EC50", "value": "0.41 µM"}
{"Compound": "CC1(C)CCC(c2ccc(Cl)cc2)=C(CN2CCN(c3ccc(C(=O)NS(=O)(=O)c4ccc(N[C@H](CCN5CCOCC5)CSc5ccccc5)c(S(=O)(=O)C(F)(F)F)c4)cc3)CC2)C1", "system": "human", "setting": "once daily", "quantity": "maximum tolerated dose", "value": "325 mg"}
